Measurements gathered from unrelated publications.
Every numbered part comes from another study and shows a few of its results, in no order. Positions count from the first letter of the parent shown.

Study 1
Target: Centromere-binding protein 1, full length, His-tagged (CBF1, Saccharomyces cerevisiae, UniProt P17106, residues 1-351)
Sequence of UniProt P17106 (whole entry, looked up): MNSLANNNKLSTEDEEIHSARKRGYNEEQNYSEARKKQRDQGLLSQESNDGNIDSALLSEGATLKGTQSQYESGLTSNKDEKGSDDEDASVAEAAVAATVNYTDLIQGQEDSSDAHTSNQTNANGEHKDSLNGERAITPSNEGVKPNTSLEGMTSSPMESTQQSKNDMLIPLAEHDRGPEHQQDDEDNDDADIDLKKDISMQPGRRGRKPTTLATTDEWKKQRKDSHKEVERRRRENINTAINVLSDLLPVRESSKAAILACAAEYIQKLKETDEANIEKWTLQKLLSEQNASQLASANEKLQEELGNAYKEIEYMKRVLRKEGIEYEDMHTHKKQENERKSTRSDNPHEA
Technique: competition protein-binding microarray
Form: double-stranded DNA, one strand shown
Medium: in vitro
Tested at: 2 µM
Notes: whole 60-bp probe, lowest competitor level
With: Pho4 competitor, 0.05 µM
Direction: higher = stronger binding
Sequence	fluorescence intensity [a.u.]
GTCTTGTCTCATTGATCGGTGGGTGTCCCCACTTCAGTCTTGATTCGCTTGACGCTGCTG	80.7
GCCCAAAGACCCGGCCACGTTCAGGCCCCATCAATAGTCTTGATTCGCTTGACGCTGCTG	61.2
TGGTATATTGCCGTTTTCTGTATCAGTTGCTGATATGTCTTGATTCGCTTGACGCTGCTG	104
CTTCTGTAAATTTTTCACGTGTAATGACGCGCCCCGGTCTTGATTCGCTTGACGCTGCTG	773
CTTCTGTAAATTTGGTGTGTGGGTGGACGCGCCCCGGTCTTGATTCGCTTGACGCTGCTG	89.4
TGCGCAACAACTTGTCACGAAACTTTATGTCTAGAAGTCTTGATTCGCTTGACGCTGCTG	81.6
CTTTCCCGATCTTGGTAAGTGGGTGTAGCACATTTGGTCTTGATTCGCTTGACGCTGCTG	71.7
GAACAGTGCCTGCACCTCGTGTATCGCGATGCGGAGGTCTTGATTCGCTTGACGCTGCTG	82.3
GGTGGAAAGTGAGTGCGCGTTTCTCGAGCCAAGTGCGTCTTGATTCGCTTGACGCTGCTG	70.3
GTTAATTTATTCCATCACGGCTGTAATGTAACCAACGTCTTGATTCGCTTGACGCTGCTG	104
TTGTTGCCACAAATGAACGTGGAAGGAGTTTCTGGGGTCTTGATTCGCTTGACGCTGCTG	73.7
CTTTCCCGATCTTGTGGAGTGGGTGTAGCACATTTGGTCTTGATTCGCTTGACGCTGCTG	67.1
CTTTCCCGATCTTGGGCAGTGGGTGTAGCACATTTGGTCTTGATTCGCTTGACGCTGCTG	71.5
GCATTACGAGAGAAGTGCGTGATGGCTGGAAACTAGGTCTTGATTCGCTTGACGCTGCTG	92.6
GTTGTTATTTTTTAGGTCGTGATGGGTGTTCCTTGTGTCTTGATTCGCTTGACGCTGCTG	99.2
CTCTAATTTTACCATCACGTGCCGATTCTAGTCATTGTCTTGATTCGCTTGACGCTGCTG	6300
CTAACGAAGGTTTGTCACGAAACTTACAAGCCAAGTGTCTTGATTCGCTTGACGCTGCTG	85.6
AGAATCAAAGCTCACCACGTCATAGTTGCGAAAGCCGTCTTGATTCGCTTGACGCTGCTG	93.4

Study 2
Target: TAR DNA-binding protein 43, full length, His tag (TARDBP, Homo sapiens, UniProt Q13148, residues 1-414)
Technique: RNA Bind-n-Seq
Form: RNA
Medium: in vitro
Tested at: 20 nM
Notes: 6-mer, flanks averaged, single round
With: 150 mM LiCl
Relative to: input library
Direction: higher = stronger binding
Sequence	6-mer enrichment (R)
CAGUUA	0.906
GGUUGA	1.18
UGGGUG	1.68
UUAUGU	1.29
CAUAUA	0.917
AUAUUA	0.991
CAGAAU	0.852
GAACUG	0.915
CAGAUA	0.816
AGGUUC	0.872
GGAAAC	0.86
UGGGAC	1.08
GCUGAA	0.918
AUGCGU	1.14
AAUGGA	0.991
CUCAUC	0.836
GCUCUA	0.846
CCACUC	0.899
AUCACU	0.832
UCCUAA	0.849

Study 3
Target: Sal-like protein 4, full length isoform A (SALL4, Homo sapiens, UniProt Q9UJQ4, residues 1-1053)
Sequence of UniProt Q9UJQ4 (whole entry, looked up): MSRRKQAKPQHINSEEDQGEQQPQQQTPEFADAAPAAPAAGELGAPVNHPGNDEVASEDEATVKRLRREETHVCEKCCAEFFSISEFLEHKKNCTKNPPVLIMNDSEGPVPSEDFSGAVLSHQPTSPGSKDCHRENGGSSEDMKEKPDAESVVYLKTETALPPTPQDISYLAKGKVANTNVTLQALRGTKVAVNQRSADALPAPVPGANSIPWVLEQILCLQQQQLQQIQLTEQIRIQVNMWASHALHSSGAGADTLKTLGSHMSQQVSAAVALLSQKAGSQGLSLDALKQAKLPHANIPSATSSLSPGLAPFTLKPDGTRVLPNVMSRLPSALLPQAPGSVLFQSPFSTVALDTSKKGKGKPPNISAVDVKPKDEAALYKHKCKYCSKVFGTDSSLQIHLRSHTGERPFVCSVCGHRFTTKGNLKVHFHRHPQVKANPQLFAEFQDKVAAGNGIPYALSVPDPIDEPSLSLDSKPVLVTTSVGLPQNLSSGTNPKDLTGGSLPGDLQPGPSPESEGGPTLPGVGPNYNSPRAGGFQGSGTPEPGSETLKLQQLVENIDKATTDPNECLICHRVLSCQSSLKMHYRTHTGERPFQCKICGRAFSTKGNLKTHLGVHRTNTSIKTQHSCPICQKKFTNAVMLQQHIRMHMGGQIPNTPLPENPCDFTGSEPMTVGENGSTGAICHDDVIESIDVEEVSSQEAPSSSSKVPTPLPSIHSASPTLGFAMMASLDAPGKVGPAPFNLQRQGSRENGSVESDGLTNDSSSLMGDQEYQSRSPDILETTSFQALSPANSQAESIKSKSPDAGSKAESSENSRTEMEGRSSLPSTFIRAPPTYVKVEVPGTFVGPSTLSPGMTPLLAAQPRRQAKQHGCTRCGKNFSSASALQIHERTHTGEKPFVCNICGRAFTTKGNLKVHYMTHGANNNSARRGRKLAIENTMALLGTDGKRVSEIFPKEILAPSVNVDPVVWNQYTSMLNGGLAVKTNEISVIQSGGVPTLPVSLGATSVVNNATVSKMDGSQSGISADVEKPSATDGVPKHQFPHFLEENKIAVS
Technique: universal PBM
Form: double-stranded DNA, one strand shown
Medium: in vitro
Tested at: 600 nM
Notes: 8-mer, flanks averaged, mean of replicates
Direction: higher = stronger binding
Sequence	E-score
CGTATCTA	0.103
ACGGTTCG	-0.217
AACTCGCT	0.0122
CGAACAAA	0.0971
ATCACCTA	-0.0642
AAAATCAT	0.379
AATTCTGG	0.0601
ATGCGTTG	0.0759
GGGGCTAA	-0.22
ACGCTACG	-0.0826
CGGCCAAG	-0.271
CAGATAAC	0.114
CTGTGCTA	-0.0346
GCTGCAGC	-0.286
ATAGATTC	0.237
GGGTCGGA	-0.261
CCATACTC	-0.0852

Study 4
Target: CCNF, cyclin fold, Cln2 fusion (human)
Technique: yeast growth competition, sequencing
Medium: yeast
Notes: strong parent motif
Relative to: not given
Direction: higher = stronger binding
Starting sequence: RBL2 docking peptide (human); STTRRRLFVENDS
Variant	normalised enrichment score
S1Q	8.1
T2N	8.62
S1D	6.59
V9Y	9.85
R5P	0.132
D12E	7.95
S1E	5.66
D12F	8.77
N11D	8.92
S1G	8.2
E10A	7.15
S13V	7.49
F8G	0.606
S1V	8.37
T3C	8.04
F8I	5.07
R4M	4.5

Study 5
Partner: ARF22 498-598 (Arabidopsis thaliana, UniProt Q9C8N7)
Technique: two-hybrid
Relative to: out of 4 tests
Direction: higher = firmer interaction
B1: IAA34 (Arabidopsis thaliana, UniProt Q9C5X0); chain MYCSDPPHPLHLVASDKQQKDHKLILSWKKPTMDSDPLGVFPNSPKYHPYYSQTTEFGGVIDLGLSLRTIQHEIYHSSGQRYCSNEGYRRKWGYVKVTMDGLVVGRKVCVLDHGSYSTLAHQLEDMFGMQSVSGLRLFQMESEFCLVYRDEEGLWRNAGDVPWNEFIESVERLRITRRNDAVLPF
B2: ARF2 727-859 (Arabidopsis thaliana, UniProt Q94JM3); chain TKTNSSRSCTKVHKQGIALGRSVDLSKFQNYEELVAELDRLFEFNGELMAPKKDWLIVYTDEENDMMLVGDDPWQEFCCMVRKIFIYTKEEVRKMNPGTLSCRSEEEAVVGEGSDAKDAKSASNPSLSSAGNS
B3: ARF4 660-788 (Arabidopsis thaliana, UniProt Q9ZTX9); chain QSSSKRICTKVHKQGSQVGRAIDLSRLNGYDDLLMELERLFNMEGLLRDPEKGWRILYTDSENDMMVVGDDPWHDFCNVVWKIHLYTKEEVENANDDNKSCLEQAALMMEASKSSSVSQPDSSPTITRV
B4: ARF8 699-811 (Arabidopsis thaliana, UniProt Q9FGV1); chain NSSNQTKNFVKVYKSGSVGRSLDISRFSSYHELREELGKMFAIEGLLEDPLRSGWQLVFVDKENDILLLGDDPWESFVNNVWYIKILSPEDVHQMGDHGEGSGGLFPQNPTHL
B5: ARF10 575-693 (Arabidopsis thaliana, UniProt Q9SKN5); chain LQGLETGHCKVFMESEDVGRTLDLSVIGSYQELYRKLAEMFHIEERSDLLTHVVYRDANGVIKRIGDEPFSDFMKATKRLTIKMDIGGDNVRKTWITGIRTGENGIDASTKTGPLSIFA
Residues (chain): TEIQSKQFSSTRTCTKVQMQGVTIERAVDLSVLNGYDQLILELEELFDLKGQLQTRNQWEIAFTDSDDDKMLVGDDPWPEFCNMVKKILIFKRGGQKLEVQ
Sequence	positive tests
B1 (IAA34)	4
B2 (ARF2 727-859)	0
B3 (ARF4 660-788)	0
B4 (ARF8 699-811)	0
B5 (ARF10 575-693)	0

Study 6
Target: ABI1, truncated, D143A, DHFR fusion (Arabidopsis thaliana)
Technique: DHFR PCA, deep sequencing
Medium: yeast
Notes: methotrexate growth selection, single substitutions
With: (+)-ABA 2500 µM
Relative to: wild-type fitted maximum
Direction: higher = stronger binding
Starting sequence: PYL1, truncated, DHFR fusion (Arabidopsis thaliana); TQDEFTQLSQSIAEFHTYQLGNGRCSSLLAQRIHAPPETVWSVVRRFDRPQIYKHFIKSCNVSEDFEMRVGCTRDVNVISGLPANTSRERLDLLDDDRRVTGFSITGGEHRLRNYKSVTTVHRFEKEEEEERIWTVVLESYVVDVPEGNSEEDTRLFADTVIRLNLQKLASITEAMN; partner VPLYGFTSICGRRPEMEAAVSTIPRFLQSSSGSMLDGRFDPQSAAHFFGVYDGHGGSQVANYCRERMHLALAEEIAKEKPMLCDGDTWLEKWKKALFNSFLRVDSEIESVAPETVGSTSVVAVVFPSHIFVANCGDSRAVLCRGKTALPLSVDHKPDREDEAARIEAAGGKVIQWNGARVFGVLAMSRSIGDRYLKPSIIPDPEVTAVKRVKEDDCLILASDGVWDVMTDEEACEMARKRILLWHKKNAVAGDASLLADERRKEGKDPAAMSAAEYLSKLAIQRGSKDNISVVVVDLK
Variant	relative binding score
V70Y	84.8%
H122V	78.5%
T1W	93.3%
C60N	67.4%
R46C	98.5%
E128M	103%
R69V	93.4%
F103G	0.814%
R49C	93.3%
C25H	81.7%
P83R	20.5%
V40E	20.8%

Study 7
Target: RNA binding protein fox-1 homolog 2, RRM domain, GST-SBP tag (RBFOX2, Homo sapiens, UniProt O43251-10, residues 100-194)
Technique: RNA Bind-n-Seq
Form: RNA
Medium: in vitro
Tested at: 365 nM
Notes: natural RNA segment, single round, ends assumed
Relative to: no-protein control
Direction: higher = stronger binding
Residues (chain): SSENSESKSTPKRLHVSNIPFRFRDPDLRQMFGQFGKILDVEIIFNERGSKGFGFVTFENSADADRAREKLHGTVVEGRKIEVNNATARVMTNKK
Sequence	RBNS enrichment (R)
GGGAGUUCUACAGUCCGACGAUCGACUGCAGGAUCAGUCUCAUUCUUCUACUAGGUGCAUGGACUCCCUUCCCACUGACUUACACUCGUCUAUCUAGAAUACAGGUUGUCCAGGCAGCUGGUCACUUACCAGGUGGAAUUCUCGGGUGCCAA	0.531
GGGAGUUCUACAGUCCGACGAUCCUUUUCAUAUAUUUUUGCUGAAGAAUAUAUGGAAAGGGUGGCAUUUGCGUCACGUGGACCAGGGACAGUGCUGAAAUCAGCAGUGCUCAGAAACAAUUUAACAUGUUGAAUGGAAUUCUCGGGUGCCAA	0.235
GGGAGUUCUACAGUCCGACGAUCGUUAUUUUACAGCUGUUUGUUAAAAUAGUGAAUAAUUUAAUGAUCCUAAAAGUAACAGGUUUCGUGUGAGUGUGCUUGUAUACGUGAGAUUUGCCUUAUUUUCAGGUUGUUGGAAUUCUCGGGUGCCAA	3.82
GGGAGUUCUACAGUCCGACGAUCUUCCUGUAUAUAAAGGAUGUAAUUACAGGAUAUAGUGGUAAUGCAUUAAAACAUGAACCUCAUUUUAGAAAUCGACAGCUAUGGUAUUUUUUUAAUGAUCAGCUUUUCUGUGGAAUUCUCGGGUGCCAA	15.6
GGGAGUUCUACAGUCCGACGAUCUCUGGAGAGCACCUCCAUUAUCUCCUCUUGAAAGUUCCUAGCCAGCAGCGCGUUCUGCGGGGCCCACUGAAGCAGAAGGCUUUUCCCUGGGGAACAGCUCUCGGUGUUGAUGGAAUUCUCGGGUGCCAA	0.268
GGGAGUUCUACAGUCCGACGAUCUGAUGUAUUAAGAUUGAUAAUAUUGCUGAUUUAAAUUUUAUUUAUGCACAUACUUAAAGGACAGAAAUGUCUGGUAAAGUAAUUGUUAAAUAAUGAUAUGUAGCUUUUUAUGGAAUUCUCGGGUGCCAA	0.379
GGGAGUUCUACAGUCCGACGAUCUAUUGAAGAAAAACAAAUUAUCUAUUUUGUUUUCCCCCAUCUAACAUGAUAGUGCCCCCAACCAGGUUGUAGCAUUGCCUUUUAAAAGAGACUCACUCACUCUUAGUUUUUGGAAUUCUCGGGUGCCAA	0.701
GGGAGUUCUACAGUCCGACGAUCGUAUCUCAUAAGGUAAACCAAUAGCUGAUUAUGUGGAGCCAAGUUACUUCUUUUCUUUUUGCAUUAUCUUGUUUUGGUUUUGUGCUGUAAUAGAAGUUCACUUAGCUACUUGGAAUUCUCGGGUGCCAA	0.369
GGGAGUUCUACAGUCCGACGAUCUAGUCUUCAGUUUCAUUUUCCUGUGCCCUGUGGUAGUUGGAAACAAAUCAUAAUGUAUUAUUUAAAUGUUUAACAUCAUUGCAUAACAGCGUUUAUUAUACAGUGGCAGAUGGAAUUCUCGGGUGCCAA	0.346
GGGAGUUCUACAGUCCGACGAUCUCUGAUCUUCCAUUAGACUUAGGGGUCAUGAUAUGAGUGGAAUUUACAUUUUAGAUACUAUAGGGGAAAGAAAAGUCUCAAAAAGAAGUAUUGCAUGUCUAAAAGCUAGUUGGAAUUCUCGGGUGCCAA	3.79
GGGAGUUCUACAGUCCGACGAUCGGCUGGGUUUGAAAAGGCAAAAAGACAAGACAUCCAGGCAGGGCUUCUCUUUUCUUUCCACAAGGGACAAGAGCUUGGCUUAUUUAGGCUACAGCCCUGCUGCUGCUCCCUGGAAUUCUCGGGUGCCAA	0.723
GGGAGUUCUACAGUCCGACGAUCGGUCUGGUCCUGUUUCUGCAGACUGCUUGGCUCAGGGCUUCCUGAGAGACUUGAGAGGAACUGUCCCUCCUCCCUCAUGCUUCUCCUCAUCCCUUCAAGCUGGUUGAAGAUGGAAUUCUCGGGUGCCAA	0.353

A few entries again (study 6):
Variant	relative binding score
R49C	93.3%
C60N	67.4%
F103G	0.814%
E128M	103%
V40E	20.8%
H122V	78.5%
C25H	81.7%
R69V	93.4%
V70Y	84.8%
P83R	20.5%
T1W	93.3%
R46C	98.5%
